Published values pooled from the literature.
Every numbered part comes from another study and shows a few of its results, in no order. Substitutions count along the parent as printed.

Block 1
Target: DBP, bZIP domain (human)
Technique: DHFR protein complementation
Matrix: yeast
Setting: single substitutions, most at no-binding floor
Relative to: wild-type JUN-FOS pair
Direction: higher = stronger binding
Quantity: binding fitness
Parent: JUN, bZIP domain (human); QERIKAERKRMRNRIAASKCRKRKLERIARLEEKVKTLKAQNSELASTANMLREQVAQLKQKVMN; partner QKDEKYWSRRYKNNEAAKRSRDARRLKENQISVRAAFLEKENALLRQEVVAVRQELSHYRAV
A40T: -1.53 natural log
S47H: -1.52 natural log
S47T: -1.4 natural log
A40S: -1.49 natural log
A29M: -1.49 natural log
A40F: -1.54 natural log
Q41G: -1.43 natural log
I28E: -1.54 natural log
V56F: -1.49 natural log
E33N: -1.22 natural log
L52I: -1.28 natural log
R30Q: -1.44 natural log
R53S: -1.42 natural log
T37R: -1.44 natural log
A46N: -1.46 natural log
R30C: -1.49 natural log
V56E: -1.52 natural log
V56W: -1.47 natural log
Q55L: -1.37 natural log
M51R: -1.38 natural log

Block 2
Target: CCNB1, cyclin fold, Cln2 fusion (human)
Technique: yeast growth competition, sequencing
Matrix: yeast
Setting: strong parent motif
Relative to: not given
Direction: higher = stronger binding
Quantity: normalised enrichment score
Parent: MASTL docking peptide (human); PMIAKNLMCELDE
M8G: 0.384
M2Q: 2.36
D12N: 1.48
M8I: 0.998
C9S: 2.08
K5E: -0.126
D12L: 0.821
L11I: 0.76
E10A: 0.795
L11G: 0.143
C9P: 3.04
E10T: 0.275
M8S: 0.667
C9I: 1.79
M8R: 0.106
E10L: 1.76
L7Y: 0.0366
M2E: 2.15
D12M: 1.15
A4I: 2.7
M2K: 2.73
L7E: 0.199
L7T: -0.456
N6D: 1.32
L11D: -0.174

Block 3
Target: Histone acetyltransferase KAT6A, winged helix 1, GST fusion (KAT6A, Homo sapiens, UniProt Q92794, residues 1-85)
Technique: protein binding microarray
Form: double-stranded DNA, one strand shown
Matrix: in vitro
Tested at: not given
Setting: 8-mer, flanks averaged, mean of 2 arrays, mostly near background
Relative to: not given
Direction: higher = stronger binding
Quantity: E-score
Construct (chain): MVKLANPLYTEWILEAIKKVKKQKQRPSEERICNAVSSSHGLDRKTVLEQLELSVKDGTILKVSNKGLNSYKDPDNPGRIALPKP
CTCGAGTC: -0.0296
ATTGAGTG: -0.0913
CTCTTTTA: -0.218
CACCCACC: -0.163
AGAGCTAC: -0.00201
AAACCGTT: -0.0555
CCAAGTGG: -0.188
CCAATGAC: -0.26
CCCGATAC: 0.015
ACACTTCG: -0.174
AGAAAATG: -0.275
GTCATACA: -0.0378
ATGGCAAA: -0.0858
CAGCGATA: -0.0136
GCCATGTA: 0.0196
CAGAGGGA: -0.0789
GACATCAA: -0.145
ATTATCGA: -0.0158
CACGATTC: -0.0174
AGCTCATA: -0.0406
GGTGCTCA: -0.0778

Block 4
Target: ABI1, truncated, D143A, DHFR fusion (Arabidopsis thaliana)
Technique: DHFR PCA, deep sequencing
Matrix: yeast
Setting: methotrexate growth selection, single substitutions
With: (+)-ABA 58 µM
Relative to: wild-type fitted maximum
Direction: higher = stronger binding
Quantity: relative binding score
Parent: PYL1, truncated, DHFR fusion (Arabidopsis thaliana); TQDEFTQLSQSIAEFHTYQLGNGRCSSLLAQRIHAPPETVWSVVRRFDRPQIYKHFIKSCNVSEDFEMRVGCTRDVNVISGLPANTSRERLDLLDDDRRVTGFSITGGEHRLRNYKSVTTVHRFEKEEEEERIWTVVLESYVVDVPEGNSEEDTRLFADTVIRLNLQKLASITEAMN; partner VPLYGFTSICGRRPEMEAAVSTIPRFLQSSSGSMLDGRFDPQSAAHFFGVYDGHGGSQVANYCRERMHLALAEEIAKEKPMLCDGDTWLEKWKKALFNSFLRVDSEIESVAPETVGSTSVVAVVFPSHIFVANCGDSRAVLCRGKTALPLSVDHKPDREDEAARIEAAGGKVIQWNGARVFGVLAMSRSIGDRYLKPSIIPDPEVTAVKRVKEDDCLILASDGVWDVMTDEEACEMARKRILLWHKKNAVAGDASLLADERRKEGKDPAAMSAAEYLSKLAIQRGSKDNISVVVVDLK
C60Y: 19.3%
L169F: -9.98%
Y115S: 8.46%
N177E: 70.2%
S63F: 54.1%
L29H: 87.4%
P146G: 50.6%
G71R: 17.7%
I12D: 0.114%
V143N: 11.4%
E128G: 94.2%
A30K: 91.7%
T160D: 8.15%
L138M: 83.2%
N61S: 87.6%
E125W: 82.2%
D159L: -0.736%
L156F: 75.3%
W134Y: 103%
S9V: 76.6%

Block 5
Target: Centromere-binding protein 1, full length, N-terminal tag (CBF1, Saccharomyces cerevisiae, UniProt P17106, residues 1-351)
Sequence of UniProt P17106 (whole entry, looked up): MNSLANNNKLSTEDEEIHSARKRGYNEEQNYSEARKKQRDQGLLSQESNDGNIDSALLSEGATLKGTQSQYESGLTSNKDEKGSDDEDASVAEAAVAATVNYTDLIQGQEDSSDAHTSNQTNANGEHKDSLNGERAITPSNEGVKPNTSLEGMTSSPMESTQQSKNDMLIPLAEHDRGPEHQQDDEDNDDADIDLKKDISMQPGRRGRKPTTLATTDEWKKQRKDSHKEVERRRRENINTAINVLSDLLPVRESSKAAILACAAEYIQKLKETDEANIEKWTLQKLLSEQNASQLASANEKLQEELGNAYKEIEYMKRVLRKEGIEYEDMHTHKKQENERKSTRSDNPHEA
Technique: protein-binding microarray
Form: double-stranded DNA, one strand shown
Matrix: in vitro
Tested at: 0.8 µM
Setting: whole 60-bp probe, no competitor
Direction: higher = stronger binding
Quantity: fluorescence intensity
GAATGATATGATAGCGACATCACTGCCGTGCAATAGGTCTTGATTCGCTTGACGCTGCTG: 531 a.u.
CTAAATATTGTATAGTACGTGATTCTGGCTAGTTTCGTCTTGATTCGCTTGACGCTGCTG: 640 a.u.
GAATCACGTGTTTTCCATGCGTGCGTTGCTTCTTAGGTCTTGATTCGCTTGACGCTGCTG: 15700 a.u.
GAAATTTTTTTCGGTGACATCAGTTGAAAGTAGTAGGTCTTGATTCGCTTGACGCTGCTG: 569 a.u.
GAATCGCCCATTCATCTGACAGGACAGAATGCCTAGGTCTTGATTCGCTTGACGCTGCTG: 483 a.u.
CTAGTTCAAGCTATTCACCTGTTACAGCAGTAGTTCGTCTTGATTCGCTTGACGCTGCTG: 537 a.u.
GAAGTATGGAATCATCAACTGATATGGCCGTCATAGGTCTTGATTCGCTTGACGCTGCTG: 531 a.u.
CTAGTTGATACAATTCATGTGGGACACTAGAGATTCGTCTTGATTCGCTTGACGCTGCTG: 521 a.u.
GAAAGGCAATCGAAACACGTGGAAAAGTACTCTTAGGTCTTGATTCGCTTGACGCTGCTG: 1850 a.u.
GAATTTGAACCTTTTCTCGTGCCAAATAAATTCTAGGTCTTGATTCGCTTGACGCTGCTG: 765 a.u.
GAACACAATAGACATCATGAAAAGGTCCACGTTTAGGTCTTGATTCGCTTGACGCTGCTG: 555 a.u.
GAAAAAAAATTACGTGACGCGACGCGTTTGTTTTAGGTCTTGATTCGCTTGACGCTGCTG: 634 a.u.
CTATTTTTGCTTCACGTGTATATATATCAGTTGTTCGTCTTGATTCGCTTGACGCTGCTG: 5090 a.u.
CTAAGCATCCCACGCCGCGTGGTGCCTTTGTTCTTCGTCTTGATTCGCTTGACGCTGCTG: 518 a.u.
GAATGCTTATATAATCACGAACACCTTTACGTATAGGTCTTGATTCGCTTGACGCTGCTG: 587 a.u.
GAATTCCGCGGACAACACGCAATTAGAGAGACATAGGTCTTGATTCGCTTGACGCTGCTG: 532 a.u.
GAAATACTTGTTGACGACATCACGGTCTCTGTTTAGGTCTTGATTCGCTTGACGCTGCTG: 593 a.u.

Block 6
Target: RNA binding protein fox-1 homolog 2, RRM domain, GST-SBP tag (RBFOX2, Homo sapiens, UniProt O43251-10, residues 100-194)
Technique: RNA Bind-n-Seq
Form: RNA
Matrix: in vitro
Tested at: 365 nM
Setting: natural RNA segment, single round, ends assumed
Relative to: no-protein control
Direction: higher = stronger binding
Quantity: RBNS enrichment (R)
Construct (chain): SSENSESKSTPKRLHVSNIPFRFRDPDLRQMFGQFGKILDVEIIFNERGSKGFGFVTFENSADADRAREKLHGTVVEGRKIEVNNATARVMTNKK
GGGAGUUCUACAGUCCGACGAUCCUAUUCUGUGUUGAACACAAUUGAUACUUCAGGUGCUUUUGAUGUGAAAAUCAUGAAAAGAGGAACAGGUGGAUGUAUAGCAUUUUUAUUCAUGCCAUCUGUUUUCAACCUGGAAUUCUCGGGUGCCAA: 0.618
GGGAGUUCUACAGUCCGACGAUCCCUGUGCUACGGAGGGGUGGAGGGCACUGAGUAGGGCUCUGCCCUAUUCAUCUUGUUGGAACCCCACCCCAUUUUCCCUGACAGAACAUUCCUAAGUCUCAAGGGCUAGUUGGAAUUCUCGGGUGCCAA: 0.306
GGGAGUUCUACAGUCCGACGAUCGGGUAGACAGGGGCGACCUGUGAUUGUUGUUAUUGAUGUUGUUGUUGAUGGCAAAAAAAAAAAAGCGACUUCGAGUUUGCUCCCCUUUGCUUGAAGAGACCCCCUCCCCCUGGAAUUCUCGGGUGCCAA: 0.58
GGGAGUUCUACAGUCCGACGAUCAGGGACUCUGCUUUCCUGUACUUCCUAAAAGUACAUUCACUAAUACUGAAGCAUCAAAGUGUAGUUUAACCUUAAGGUUGGGUUGUAAAUAACACAGUUGGGUGUAGGCAUGGAAUUCUCGGGUGCCAA: 0.776
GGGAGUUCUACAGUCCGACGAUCAUGUUAUUUCUUCCUCACAUCCAUCCAGUGGGGAGGACCCUCUGACUUAAGGGACCACCUUGGGAAGCUUCUGUAGCUUCAGCCAGGCAAGAAAGCUUCUUCCAACUUCUUGGAAUUCUCGGGUGCCAA: 0.308
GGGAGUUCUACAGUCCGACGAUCGGAAGGUGAGAUGGCCAGUUUGAAGCCUGUGCCUCCCAGCUUAAAUCCUAGCAGGAGAGAGGCUCUGGGGCAGCCCCCAUGGGCUCCUGCCCCUUUCAGGCCUACAGCCAUGGAAUUCUCGGGUGCCAA: 0.274
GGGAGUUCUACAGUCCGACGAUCCCAUCACCUUAGACCACCAAGCCUUGAUUGGUGUUGCCAGUUGUCCUCCUUCCGGGGAAGGAUUUUGCAGUUCUUUGGCUGAAAGGAAGCUGUGCGUGUGUGUGUGUGUAUGGAAUUCUCGGGUGCCAA: 0.737
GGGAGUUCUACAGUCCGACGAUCUUAGAAACGGAAAUGGAAUCCUGCUCACAAAAUCACUUUAAGAUCUUUUCGAAGCUGUUAAUUUUUCUUAGUGUUGUGGACACUGCAGACUUGUCCAGUGCUCCCACGGCUGGAAUUCUCGGGUGCCAA: 0.59
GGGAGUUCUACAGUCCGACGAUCAGGGAUAAAAUUUAACUUUAUUUUUCUACACAUCUGUUGCCAGGUGAGGCACGUGCUUUGAAGCAGAUGCCUUCAGCCCUCCCUGCUGGGAGGUGGUCUCUCAAGCUCUGUGGAAUUCUCGGGUGCCAA: 0.31
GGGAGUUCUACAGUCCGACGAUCGCAAGUUUACCGUAACUUUUCUUAAACUUUUUAGUGCCGUUUCUAGUAUAUUCCUGUAAAUGUCAGUUACUGAAAAUGAGUCCAUUGUAAGUAGUUUAGCUUGUUUUUUGUGGAAUUCUCGGGUGCCAA: 0.656
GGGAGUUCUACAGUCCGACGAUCUUUCUAAAAGAGCAUGUACAAAAGUGGCCUGUGGACAUUUAGGCCUGGGUGAUGCAUUUGCUCUUCCUGUUUGUGCCAAUGUAUCAAUGUAGAGUUGCUCUGUUUUCUUCUGGAAUUCUCGGGUGCCAA: 1.3
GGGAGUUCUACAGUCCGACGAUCAGAGGUGCAAACAGCGAGCGAUUAAGAACUGUUGGUCAACUGUUACGAGACUAUAAAAGGCUUAGCCACACUACGGGACAAAUUGUGUUGUGAAUUCGCAUUGCUGUUUUUGGAAUUCUCGGGUGCCAA: 0.498
